Assay results gathered from unrelated publications.
Lines come from different studies, so protocols differ. Changes are numbered by the printed parent chain. ± marks the error that the study gave.
RIGI: RIGI 2-925 (Homo sapiens, UniProt O95786)
UniProt O95786, sequence (whole entry, looked up): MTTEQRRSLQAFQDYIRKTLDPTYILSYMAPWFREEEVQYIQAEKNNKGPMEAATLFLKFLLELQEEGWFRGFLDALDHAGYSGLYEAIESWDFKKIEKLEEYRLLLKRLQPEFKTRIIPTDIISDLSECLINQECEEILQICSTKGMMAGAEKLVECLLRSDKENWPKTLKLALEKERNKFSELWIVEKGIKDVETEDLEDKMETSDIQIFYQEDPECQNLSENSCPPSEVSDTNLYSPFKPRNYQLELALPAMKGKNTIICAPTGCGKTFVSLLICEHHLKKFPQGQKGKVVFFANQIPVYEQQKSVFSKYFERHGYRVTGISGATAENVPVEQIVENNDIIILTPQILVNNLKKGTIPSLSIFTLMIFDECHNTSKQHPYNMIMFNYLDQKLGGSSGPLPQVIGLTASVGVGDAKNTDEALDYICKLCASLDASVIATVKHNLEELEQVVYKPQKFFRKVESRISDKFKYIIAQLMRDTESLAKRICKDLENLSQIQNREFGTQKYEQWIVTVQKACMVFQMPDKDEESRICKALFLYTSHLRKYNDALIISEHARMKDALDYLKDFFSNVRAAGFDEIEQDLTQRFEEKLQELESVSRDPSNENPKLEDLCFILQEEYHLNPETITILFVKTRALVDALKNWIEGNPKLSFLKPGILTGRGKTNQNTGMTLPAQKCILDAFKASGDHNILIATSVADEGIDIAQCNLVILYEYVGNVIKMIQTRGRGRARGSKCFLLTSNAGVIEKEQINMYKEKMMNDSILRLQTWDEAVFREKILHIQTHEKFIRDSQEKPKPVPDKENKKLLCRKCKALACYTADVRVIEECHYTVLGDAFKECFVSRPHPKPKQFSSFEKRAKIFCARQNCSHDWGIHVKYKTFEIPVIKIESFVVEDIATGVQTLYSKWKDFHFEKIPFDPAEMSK
SUMO/GIN4: SUMO/GIN4 (Saccharomyces cerevisiae)
P1: SFH4 (Saccharomyces cerevisiae); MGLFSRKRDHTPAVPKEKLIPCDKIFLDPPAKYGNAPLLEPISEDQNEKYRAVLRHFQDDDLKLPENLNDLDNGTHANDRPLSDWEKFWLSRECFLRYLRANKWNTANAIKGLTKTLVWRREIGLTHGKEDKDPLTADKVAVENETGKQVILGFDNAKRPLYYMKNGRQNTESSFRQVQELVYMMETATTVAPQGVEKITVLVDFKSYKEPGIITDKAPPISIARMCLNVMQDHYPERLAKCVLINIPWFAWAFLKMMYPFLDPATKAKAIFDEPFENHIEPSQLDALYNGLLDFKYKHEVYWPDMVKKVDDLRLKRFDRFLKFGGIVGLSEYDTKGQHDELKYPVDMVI
P2: ELM1 (Saccharomyces cerevisiae); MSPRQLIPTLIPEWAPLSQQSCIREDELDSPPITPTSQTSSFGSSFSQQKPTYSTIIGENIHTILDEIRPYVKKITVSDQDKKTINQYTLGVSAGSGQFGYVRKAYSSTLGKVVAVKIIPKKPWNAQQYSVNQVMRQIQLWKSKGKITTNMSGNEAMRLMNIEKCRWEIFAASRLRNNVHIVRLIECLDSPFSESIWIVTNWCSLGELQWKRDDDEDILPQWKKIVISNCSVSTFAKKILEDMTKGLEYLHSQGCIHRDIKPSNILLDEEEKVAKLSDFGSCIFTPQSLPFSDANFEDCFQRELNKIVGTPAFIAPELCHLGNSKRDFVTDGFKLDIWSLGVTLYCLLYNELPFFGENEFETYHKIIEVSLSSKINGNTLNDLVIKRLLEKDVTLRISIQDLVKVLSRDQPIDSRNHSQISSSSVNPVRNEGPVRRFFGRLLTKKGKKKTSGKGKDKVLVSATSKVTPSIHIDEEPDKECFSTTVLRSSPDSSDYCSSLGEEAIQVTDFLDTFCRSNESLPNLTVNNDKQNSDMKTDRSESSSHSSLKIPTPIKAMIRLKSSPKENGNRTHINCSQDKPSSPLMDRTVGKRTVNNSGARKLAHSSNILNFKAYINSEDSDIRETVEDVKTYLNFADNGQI
P3: METTL9 full-length, 1-318 (Homo sapiens); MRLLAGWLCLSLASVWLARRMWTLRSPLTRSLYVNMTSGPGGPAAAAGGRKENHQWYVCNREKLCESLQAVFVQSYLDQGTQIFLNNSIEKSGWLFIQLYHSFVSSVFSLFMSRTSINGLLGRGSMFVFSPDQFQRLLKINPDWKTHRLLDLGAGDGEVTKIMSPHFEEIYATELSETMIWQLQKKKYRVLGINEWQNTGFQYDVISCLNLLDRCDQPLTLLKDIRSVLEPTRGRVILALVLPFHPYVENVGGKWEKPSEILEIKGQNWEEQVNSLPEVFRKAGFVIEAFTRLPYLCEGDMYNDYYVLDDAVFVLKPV; partner HTHESIWHG
P4: RCC1 residues 1-6 peptide (Homo sapiens); SPKRIA; partner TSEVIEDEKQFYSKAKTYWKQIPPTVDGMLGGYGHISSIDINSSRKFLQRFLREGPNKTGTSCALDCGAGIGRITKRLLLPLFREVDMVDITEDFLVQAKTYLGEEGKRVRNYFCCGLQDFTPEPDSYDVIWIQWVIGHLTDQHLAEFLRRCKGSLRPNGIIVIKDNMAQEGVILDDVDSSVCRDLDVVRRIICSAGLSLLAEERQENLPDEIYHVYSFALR

| Molecule | target or system | assay | test system | conditions | scale | endpoint | value |
| --- | --- | --- | --- | --- | --- | --- | --- |
| P1 F175L | PSD2 (Saccharomyces cerevisiae) | co-IP | – | read off a plot | relative to: unchanged protein, higher = more binding | relative binding | 0.045 |
| RNA 1 GCAUGCGACCUCUGUUUGA / RNA 2 UCAAACAGAGGUCGCAUGC (dsRNA; 5'-triphosphate, duplex, 19 bp) | RIGI | MST | double-stranded RNA | together with: AMP-CP 0.4 mM; MgCl2.5 mM | – | Kd | 0.0012 ± 0.0003 µM |
| P2 S519A | SUMO/GIN4 | GST pull-down | – | – | relative to: unchanged protein, higher = more binding | relative binding | 1 |
| P3 D213N | SLC39A7 residues 66-74 | ITC | – | together with: SAH 2 mM | – | Kd | 28.7 µM |
| MYO10 S1062R (Homo sapiens) | BTRC | co-IP | HEK293T | together with: MG132 | relative to: unchanged protein, higher = more binding | relative binding | 0.6 |
| P3 V241G | SLC39A7 residues 66-74 | ITC | – | together with: SAH 2 mM | – | Kd | 60.9 µM |
| P4 S1Y | NTMT1 residues 2-223 (Homo sapiens) | ITC | – | second site, bimodal curve | – | Kd | 0.1 µM |
| MYO10 L1063P (Homo sapiens) | BTRC | co-IP | HEK293T | together with: MG132 | relative to: unchanged protein, higher = more binding | relative binding | 0.6 |
| P2 S519D | SUMO/GIN4 | GST pull-down | – | – | relative to: unchanged protein, higher = more binding | relative binding | 1.1 |
| RNA 1 GCAUGCGACCUCUGUUUGA / RNA 2 UCAAACAGAGGUCGCAUGC (dsRNA; 5'-OH, duplex, 19 bp) | RIGI | MST | double-stranded RNA | together with: AMP-CP 0.4 mM; MgCl2.5 mM | – | Kd | 0.121 ± 0.05 µM |

Repeated from above:
| Molecule | target or system | assay | test system | conditions | scale | endpoint | value |
| --- | --- | --- | --- | --- | --- | --- | --- |
| RNA 1 GCAUGCGACCUCUGUUUGA / RNA 2 UCAAACAGAGGUCGCAUGC (dsRNA; 5'-triphosphate, duplex, 19 bp) | RIGI | MST | double-stranded RNA | together with: AMP-CP 0.4 mM; MgCl2.5 mM | – | Kd | 0.0012 ± 0.0003 µM |
